# Experimental data collected from several papers.
# Every numbered part comes from another study and shows a few of its results, in no order. Substitutions count along the parent as printed.

# Set 1
# Target: CCND1, cyclin fold, Cln2 fusion (human)
# Method: yeast growth competition, sequencing
# Sample: yeast
# Notes: weak parent motif
# Relative to: not given
# Reading: higher = stronger binding
# Starting sequence: E2F1 docking peptide (human); PPVKRRLDLETDH; partner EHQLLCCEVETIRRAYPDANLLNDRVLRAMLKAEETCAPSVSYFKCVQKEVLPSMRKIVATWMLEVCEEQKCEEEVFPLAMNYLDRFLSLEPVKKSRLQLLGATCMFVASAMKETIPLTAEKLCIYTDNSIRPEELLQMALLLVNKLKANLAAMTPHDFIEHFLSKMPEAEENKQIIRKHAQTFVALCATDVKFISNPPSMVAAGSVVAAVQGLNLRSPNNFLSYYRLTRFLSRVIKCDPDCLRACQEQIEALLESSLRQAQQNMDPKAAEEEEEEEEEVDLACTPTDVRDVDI
Change,normalised enrichment score
T11E,0.31
D12M,0.261
R5S,-0.492
D8E,-0.172
K4S,0.735
V3R,0.127
H13Y,0.215
K4N,0.0847
P1Y,0.939
V3K,0.664
D12Y,0.66
K4M,1.1
D8T,1.06

# Set 2
# Target: Phosphate system positive regulatory protein PHO4, full length, GST-tagged (PHO4, Saccharomyces cerevisiae, UniProt P07270, residues 1-312)
# Method: competition protein-binding microarray
# Molecule type: double-stranded DNA, one strand shown
# Sample: in vitro
# Concentration: 2 µM
# Notes: whole 60-bp probe, lowest competitor level
# With: Cbf1 competitor, 0.05 µM
# Reading: higher = stronger binding
# Construct (chain): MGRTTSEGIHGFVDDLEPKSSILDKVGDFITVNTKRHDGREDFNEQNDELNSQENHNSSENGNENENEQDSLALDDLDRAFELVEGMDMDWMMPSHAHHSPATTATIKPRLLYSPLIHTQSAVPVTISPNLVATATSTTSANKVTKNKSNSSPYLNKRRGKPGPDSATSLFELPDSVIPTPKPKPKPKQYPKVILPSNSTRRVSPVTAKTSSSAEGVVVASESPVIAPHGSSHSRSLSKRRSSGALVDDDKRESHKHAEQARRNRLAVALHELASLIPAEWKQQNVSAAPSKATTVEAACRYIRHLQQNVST
Oligonucleotide,fluorescence intensity
TTCATTGATGAAATTCACATGTTAATGGGTAATGGTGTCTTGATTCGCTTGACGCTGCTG,7350 a.u.
CCATTTGGATATAAGCTTGTGACAGTGACAGTAGAGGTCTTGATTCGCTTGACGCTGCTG,6070 a.u.
GGCGAATGGAAAAATCACCTGGCAAGTCATTTCATCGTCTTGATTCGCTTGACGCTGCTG,2910 a.u.
TAATCGCAGTAGTTGAGCGTGCGATTTGCGCATTTGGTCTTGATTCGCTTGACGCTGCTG,6620 a.u.
CTGTTGGGTTTTTCTCTCGAGCAAGCCGTTATAATTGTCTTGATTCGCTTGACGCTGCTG,3300 a.u.
TCTTAGCAGTGAGGACACGGGAGTTGCAGATCAATCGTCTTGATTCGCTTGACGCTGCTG,6300 a.u.
CTAACGAAGGTTTGATAGGTGGGTGACAAGCCAAGTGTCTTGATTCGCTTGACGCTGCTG,3610 a.u.
CGTCCTAGTGATTGCGCGGTGGGTGCCATGAGGAAGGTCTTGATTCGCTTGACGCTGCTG,7540 a.u.
TGCAAACCTGCAATACTCGTGATGGATATTTAATTAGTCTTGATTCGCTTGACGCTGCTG,8150 a.u.
CTAACGAAGGTTTGAGATGTGGGTGACAAGCCAAGTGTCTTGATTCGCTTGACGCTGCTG,3750 a.u.
TTATGATACAGTTCTCCCGTGGTTACCAGCTTGGCAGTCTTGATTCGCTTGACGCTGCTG,4880 a.u.
GAATTCTGTGCACTTGCCGTGATGGTGTTCGTTACAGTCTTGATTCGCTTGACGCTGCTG,3710 a.u.
ATAAATCGTTGGAGTGACCTGGCGTTGGGGTAATTCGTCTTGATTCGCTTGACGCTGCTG,2980 a.u.
TAGTCCTACAAAACCGGCGTGGGTACATAGATTTTCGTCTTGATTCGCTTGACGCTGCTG,6330 a.u.

# Set 3
# Target: Interferon regulatory factor 5, full length, phosphomimetic (IRF5, Homo sapiens, UniProt Q13568-2, residues 1-514, S451D/S453D/S456D/S462D)
# Method: protein-binding microarray
# Molecule type: double-stranded DNA, one strand shown
# Sample: in vitro
# Concentration: 940 nM top
# Notes: 60-bp whole probe
# With: salmon DNA 0.4 mg/ml
# Relative to: random background probes
# Reading: higher = stronger binding
# Shared flanks, not repeated: GCCTAGCAC … GTCTTGATTCGCTTGACGCTGCTG
Oligonucleotide,fitted relative affinity [z-score]
ACTAGTTTCTTTTCTTTTCTGTGCTAG,4.65
GACGATCCCAGTATCGAGACGTGCTAG,1.83
TTATGACTGGGACTGGGTTAGTGCTAG,-0.214
GAGGGTCTCGGACTGGGGACGTGCTAG,0.078
TTAGATAACAGACTGGATTAGTGCTAG,-0.399
GACGATCTCACTATCGAGACGTGCTAG,0.943
TTAGATTTCAGTTTCGGTTAGTGCTAG,9.74
GACGGTTTCGACAATCGGGACGTGCTA,6.71
TTAGGACTTGACACTGGGTTAGTGCTA,-0.469
TCAGGTAGCCTTATCCCACTGTGCTAG,-0.21
GATGATATCGGGACTGGAGACGTGCTA,-0.213
TTAGGTCACCTTCTCCTTTAGTGCTAG,0.333
TTAGGTATCGATTTCGGTTAGTGCTAG,9.04
TCATGTCTGTGTTTCCTACTGTGCTAG,0.579
AGTGTGGTCTGTTTCTGATAGTGCTAG,0.499
TCACCATTTTTTTTCACACTGTGCTAG,1.67
TACTGCTGGAGCTCAAGAGCGTGCTAG,-0.751
GACGTTTTCAGACTGGAGACGTGCTAG,-0.314

# Set 4
# Target: RING finger protein unkempt homolog, zinc fingers 1-6, GST-SBP tag (UNK, Homo sapiens, UniProt Q9C0B0, residues 30-357)
# Sequence of UniProt Q9C0B0 (30-357, looked up): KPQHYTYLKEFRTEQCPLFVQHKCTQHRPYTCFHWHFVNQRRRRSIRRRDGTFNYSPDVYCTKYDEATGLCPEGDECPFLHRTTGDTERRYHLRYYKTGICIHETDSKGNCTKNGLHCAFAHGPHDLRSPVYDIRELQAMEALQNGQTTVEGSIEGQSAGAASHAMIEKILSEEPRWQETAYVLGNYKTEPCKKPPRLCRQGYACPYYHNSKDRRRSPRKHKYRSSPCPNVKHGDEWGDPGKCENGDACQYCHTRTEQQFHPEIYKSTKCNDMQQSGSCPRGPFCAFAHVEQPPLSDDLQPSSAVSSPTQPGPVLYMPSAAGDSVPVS
# Method: RNA Bind-n-Seq
# Molecule type: RNA
# Sample: in vitro
# Concentration: not given
# Notes: RNA with constant flanks, human-mouse chimeric sites, ends assumed
# Relative to: input RNA pool
# Reading: higher = stronger binding
Oligonucleotide,bound/input enrichment [ratio]
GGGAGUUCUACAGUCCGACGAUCUGGCGCCUGCGCUCCCCACUCGUGUUUGUAUUUUUAUUUUUAUAAGAUACAUGUAUUUACAAUUGAGCUUUUGUUACAUAAUGCUGAAAUGCUACUGCAAUAUUAUGAAAAUGUUUCAAUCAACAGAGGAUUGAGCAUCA,0.225
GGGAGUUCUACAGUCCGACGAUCGGGACUGAUUCAUUCCAAGGACAGGCCACCCCAUUUGAUGCCUGGACUGAUGACAGUAUGGAAGGGCCUAGUCAAAAUGUUGAAGCUGAGUCAAUUCAAGAUAAUGCGAGUAUGGAAGAGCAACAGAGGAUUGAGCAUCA,0.447
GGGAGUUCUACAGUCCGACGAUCUCUUUAAAUGCACUACAACCUUUUCUGACAGUGCUUUCCCUCCCAUAGAUCCACGUUCAAGCUCAAAGGCCAAAACUUUUGCACGGAGCUCAAACAUCUGAUGAAGAAAGAUUUCUGAGACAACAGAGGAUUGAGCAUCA,0.491
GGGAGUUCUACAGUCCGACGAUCACUCAGAGAUUAUAUUCCCAAAGUGCUGGGAGUAAAGGUGUGGCCACCACACCUAACUUGAUGGAUAUAUAUUUUUUCUCUUUUAUGUCUUCCUGUUCGUCCAGGGAAGAAAGAUUUGUUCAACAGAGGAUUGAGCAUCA,0.593
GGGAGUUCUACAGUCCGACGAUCAUAAAGGCUAUGUUGAGUGGUCCAGGUCAGUUUGCUGAGAAUGAAACCAACGAGGUCAAUUUUAGAGAGAUCCCCUCACAUGUGCUAUCGAAAGUAUGCAUGUAUUUUACGUACAAGGUCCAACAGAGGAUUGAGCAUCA,0.182
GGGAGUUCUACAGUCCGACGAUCUAAAUUAGCCAGCACCAUUUCUGUUUCUCCCUGGGCUGCGGAAAGCCAGAAGAUUUUAUCUAGCUUAUACAAGGCUGCUGGUGUUCCCUCCCUCCCGCCACGAGGGUGUUUUUGGCUGCACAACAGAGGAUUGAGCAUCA,0.791
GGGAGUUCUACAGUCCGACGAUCGGACAUCUGUCAAAUUGUUAUGUUCCUGUGAAACAAGUGAGCACUUUGAUACACUUCAUCUGCUUGUACAUCUGUAUGAUAGAGAAAUGUAAAUAUGAAUAUAUUUACAAUGUGUCACUUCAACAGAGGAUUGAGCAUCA,0.0744
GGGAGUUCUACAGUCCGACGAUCCUCGGCACUGGUACCCUUUACAUCGCGGAGAGCCGCCUGUCCUGGUUAGAUGGCUCUGGAUUAGGAUUCUCACUGGAAUACCCCACCAUUAGUUUACAUGCGGUGUCCAGGGAUCCAAACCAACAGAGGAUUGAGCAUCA,0.824

# Set 5
# Target: Ras GTPase-activating protein-binding protein 1, RRM domain (G3BP1, Homo sapiens, UniProt Q13283)
# Sequence of UniProt Q13283 (whole entry, looked up): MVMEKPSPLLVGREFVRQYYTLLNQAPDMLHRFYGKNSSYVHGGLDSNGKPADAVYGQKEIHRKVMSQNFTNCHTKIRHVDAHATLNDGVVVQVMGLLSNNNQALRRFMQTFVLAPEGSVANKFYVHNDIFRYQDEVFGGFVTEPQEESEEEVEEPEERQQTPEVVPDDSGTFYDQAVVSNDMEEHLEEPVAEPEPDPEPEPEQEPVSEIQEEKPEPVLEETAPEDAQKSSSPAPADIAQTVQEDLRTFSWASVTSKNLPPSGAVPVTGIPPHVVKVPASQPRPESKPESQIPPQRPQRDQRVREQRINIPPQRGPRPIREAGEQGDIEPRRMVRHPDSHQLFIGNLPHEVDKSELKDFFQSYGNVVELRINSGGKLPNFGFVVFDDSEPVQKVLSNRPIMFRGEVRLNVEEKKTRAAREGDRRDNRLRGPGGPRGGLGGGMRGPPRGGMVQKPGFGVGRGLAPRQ
# Method: RNA Bind-n-Seq
# Molecule type: RNA
# Sample: in vitro
# Concentration: 1 µM
# Notes: whole 134-nt RNA, ends assumed
# With: 150 mM KCl
# Relative to: input library
# Reading: higher = stronger binding
Oligonucleotide,log2 enrichment
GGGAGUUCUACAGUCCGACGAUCACCAAGCAGGUGGGCAUCUUUGGGAAGUGGGGCAAGGGGGGGAUAGGGAGGGGGGUAACACUUUGGGAACAGGUGGUCCCAGGUCGUUUCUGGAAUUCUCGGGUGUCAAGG,-0.525
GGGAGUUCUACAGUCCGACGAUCCAAGUCCUGUGCUACACAUCGUAUGUACCGAAUCGGGUUUGGGGUUUGGUUUGGGAAAGUAUUAUGUUACGCCGUUCGGAUCUGCACUUCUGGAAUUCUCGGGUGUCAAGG,-0.396
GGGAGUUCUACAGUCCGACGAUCUGGCCCUGGUAGCAUGCGGGGAGGAAGAGGUGGCCUCAUGGAUCGUGGUGGUCCCGGUGGAAUGUUCAGAGGUGGCCGUGGUGGAGACAGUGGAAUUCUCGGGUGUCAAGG,1.07
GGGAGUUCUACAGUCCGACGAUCCACAGACAACACGCACCCACAUAGACACAGAGGGAAGGGGUUGGGAUGGGGACAGGGUGCACAGCAGGGCGGGGUAGGACCCCAGCCCCUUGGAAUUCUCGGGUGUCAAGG,0.142
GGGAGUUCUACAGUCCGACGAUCUCCUGUGCUACACAUCGUAUGUACCGAAUCGGAAAAAAGGGAAAAAAGGGGAAAAAAGGGAAAGUAUUAUGUUACGCCGUUCGGAUCUGCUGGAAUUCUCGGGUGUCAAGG,-0.00365
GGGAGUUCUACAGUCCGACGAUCCCUCAAGUCCUGUGCUACACAUCGUAUGUACCGAAUCGGGGCGGCGGCGGGGAAAGUAUUAUGUUACGCCGUUCGGAUCUGCACUUCCAGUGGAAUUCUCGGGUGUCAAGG,-0.314
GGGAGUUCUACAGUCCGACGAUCGUCCUGUGCUACACAUCGUAUGUACCGAAUCGGGAAAAAGGGGAAAAAGGGAAAAAGGGAAAGUAUUAUGUUACGCCGUUCGGAUCUGCAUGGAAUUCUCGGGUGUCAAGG,0.188
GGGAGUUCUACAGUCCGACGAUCUGUGCUACACAUCGUAUGUACCGAAUCGGGCCCCCCCGGGGCCCCCCCGGGGCCCCCCCGGGGAAAGUAUUAUGUUACGCCGUUCGGAUCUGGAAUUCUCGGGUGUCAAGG,-0.738

# For quick reference, copied from above (set 2):
Oligonucleotide,fluorescence intensity
TGCAAACCTGCAATACTCGTGATGGATATTTAATTAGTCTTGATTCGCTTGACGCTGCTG,8150 a.u.
TCTTAGCAGTGAGGACACGGGAGTTGCAGATCAATCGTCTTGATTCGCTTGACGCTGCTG,6300 a.u.
GGCGAATGGAAAAATCACCTGGCAAGTCATTTCATCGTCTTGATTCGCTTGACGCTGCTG,2910 a.u.
TAATCGCAGTAGTTGAGCGTGCGATTTGCGCATTTGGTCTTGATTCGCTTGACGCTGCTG,6620 a.u.
CTGTTGGGTTTTTCTCTCGAGCAAGCCGTTATAATTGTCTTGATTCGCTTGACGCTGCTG,3300 a.u.
